Experimental data from different studies.
Compare with care: the assays were run in different laboratories. Numbers after ± are the reported error. In brackets after ≈: the same amount, converted by molar mass.

For `C=CCc1ccc(OCc2ccccc2)c(OC)c1`, the antifeedant index was 52.7% (Spodoptera frugiperda; larvae; 1000 µg/mL; relative to: untreated control).
The MBC of `CC[C@H](C)[C@H](NC(=O)[C@H](CO)NC(=O)[C@H](CO)NC(=O)[C@H](Cc1ccccc1)NC(=O)CN)C(=O)N[C@@H](Cc1ccccc1)C(=O)N[C@@H](CCCNC(=N)N)C(=O)NCC(=O)N[C@H](C(=O)N[C@@H](C)C(=O)N[C@@H](CCCCN)C(N)=O)C(C)C` is reported as > 128 µM (Escherichia coli; ATCC 8739; added: 8 mM ZnCl2).
`COc1ccc(-n2c(SCC#N)nnc2[C@H](Cc2ccccc2)NC(=O)Cc2c(C)[nH]c3ccccc23)cc1` has an infection of 0.06 ± 0.01% (HIV-1 NL4-3; single-round infection; 5 µM, early stage; relative to: untreated).
`O=C(Nc1ccccc1Nc1ccccc1)c1cccnc1Cl` has an inhibition of 32.4% (Botrytis cinerea; microbial growth; 50 µg/mL).
With `CC(=O)c1c(O)c(C)c(O)c2c1OC1=CC(=O)/C3=C(/C)N[C@H](C(=O)O)CC1=CC=CC=C[C@]2(C)C3=O` the MIC99 was 1.59 µM (≈ 0.781 µg/mL) (Candida tropicalis; broth microdilution; ATCC 750 fluconazole and amphotericin B resistant; 24 and 48 h).
`C=C(C)[C@@H]1CC[C@]2(COS(=O)(=O)c3ccc(C)cc3)CC[C@]3(C)[C@H](CC[C@@H]4[C@@]5(C)CCCNC(C)(C)[C@@H]5CC[C@]43C)[C@@H]12` has a selectivity index of < 3 (Human cytomegalovirus; HFF, AD169; relative to: CC50 over EC50).
`CC[C@H](C)[C@H](NC(=O)[C@H](CCCCN)NC(=O)[C@H](CCCCN)NC(=O)[C@H](CC(C)C)NC(=O)[C@H](CCCCN)NC(=O)[C@H](CCC(=O)O)NC(=O)[C@H](CCCCN)NC(=O)[C@@H](NC(=O)[C@H](CCCCN)NC(=O)[C@H](CC(N)=O)NC(=O)[C@H](CCCNC(=N)N)NC(=O)[C@H](Cc1ccccc1)NC(=O)[C@H](CCCCN)NC(=O)[C@H](CCCNC(=N)N)NC(=O)[C@H](CC(C)C)NC(=O)[C@H](CCCNC(=N)N)NC(=O)[C@H](CCCCN)NC(=O)[C@H](CCCNC(=N)N)NC(=O)[C@H](CC(C)C)NC(=O)[C@@H](N)CC(C)C)[C@@H](C)CC)C(=O)NCC(=O)N[C@@H](CCC(N)=O)C(=O)N[C@@H](CCCCN)C(=O)N[C@H](C(=O)N[C@@H](CCC(N)=O)C(=O)NCC(=O)N[C@@H](Cc1ccccc1)C(=O)N[C@H](C(=O)N1CCC[C@H]1C(=O)N[C@@H](CCCCN)C(=O)N[C@@H](CC(C)C)C(=O)N[C@H](C(=O)N1CCC[C@H]1C(=O)N[C@@H](CCCNC(=N)N)C(=O)N[C@H](C(=O)N[C@@H](CCC(=O)O)C(=O)N[C@@H](CO)C(=O)O)[C@@H](C)O)C(C)C)C(C)C)[C@@H](C)CC` has a lethal concentration of 1.48 µM (Staphylococcus; inhibition zone; methicillin-resistant coagulase-negative P1369).
For `CC(C)C[C@@H]1NC(=O)[C@H](CCCCN)NC(=O)[C@H](C(C)C)NC(=O)[C@@H]2CCCN2C(=O)[C@@H](Cc2ccc(O)cc2)NC(=O)[C@H](CC(C)C)NC(=O)[C@H](CCCCN)NC(=O)[C@H](C(C)C)NC(=O)[C@H](CCCCN)NC(=O)[C@H](CC(C)C)NC(=O)[C@@H]2CCCN2C(=O)[C@@H](Cc2ccc(O)cc2)NC(=O)[C@H](C(C)C)NC1=O`, “MIC geometric mean” read 70.7 µg/mL (≈ 45.8 µM) (Gram-negative bacteria; 24 h, 7 strains).
With `CC(=O)Nc1cccc(CNC(=O)c2cnc3ccccc3c2C(F)(F)F)c1` the median survival was 33 days (Drosophila melanogaster; APP transgenic (Alzheimer model); in food, 100 µM, 72 h, from adult day 3).
`Cc1cn(C2CC(N(C)C)C(CO)O2)c(=O)[nH]c1=O` (stereo not drawn) gave an EC50 of > 370 nM (respiratory syncytial virus; viral replication; HeLa).
With `CC[C@H](C)[C@H](NC(=O)[C@H](CCCCN)NC(=O)[C@H](CCCCN)NC(=O)[C@H](CC(C)C)NC(=O)[C@H](CCCCN)NC(=O)[C@H](CCC(=O)O)NC(=O)[C@H](CCCCN)NC(=O)[C@@H](NC(=O)[C@H](CCCCN)NC(=O)[C@H](CC(N)=O)NC(=O)[C@H](CCCNC(=N)N)NC(=O)[C@H](Cc1ccccc1)NC(=O)[C@H](CCCCN)NC(=O)[C@H](CCCNC(=N)N)NC(=O)[C@H](CC(C)C)NC(=O)[C@H](CCCNC(=N)N)NC(=O)[C@H](CCCCN)NC(=O)[C@H](CCCNC(=N)N)NC(=O)[C@H](CC(C)C)NC(=O)[C@@H](N)CCCNC(=N)N)[C@@H](C)CC)C(=O)NCC(=O)N[C@@H](CCC(N)=O)C(=O)N[C@@H](CCCCN)C(=O)N[C@H](C(=O)N[C@@H](CCC(N)=O)C(=O)NCC(=O)N[C@@H](Cc1ccccc1)C(=O)N[C@H](C(=O)N1CCC[C@H]1C(=O)N[C@@H](CCCCN)C(=O)N[C@@H](CC(C)C)C(=O)N[C@@H](CCC(N)=O)C(=O)N1CCC[C@H]1C(=O)N[C@@H](CO)C(=O)N[C@@H](CCCCN)C(=O)N[C@@H](CCC(N)=O)C(=O)N[C@@H](CO)C(=O)O)C(C)C)[C@@H](C)CC` the lethal concentration was 2.17 µM (Staphylococcus warneri; inhibition zone; ATCC 1.2824; LB agar, overnight).
For `CC(=O)O[C@@H]1C[C@@H](C)O[C@H]2O[C@@H]3C[C@@H]4CC[C@@H]5[C@H](CC[C@]6(C)[C@@H](C7=CC(=O)OC7)CC[C@]56O)[C@@]4(C)C[C@H]3O[C@]21O`, the worm count was 5.7 ± 2.5 (Schistosoma mansoni; mouse chronic infection, liver; oral, 10 mg/kg single, dead worms).
`CC[C@H](C)[C@H](NC(=O)[C@@H]1CC(=O)N[C@@H](CO)C(=O)N[C@@H](CC(C)C)C(=O)NCC(=O)N[C@@H](CO)C(=O)N[C@@H](CO)C(=O)N2CCC[C@H]2C(=O)N[C@@H](Cc2ccc(O)cc2)C(=O)N[C@@H](CC(N)=O)C(=O)N1)C(=O)N[C@@H](CC(C)C)C(=O)NCC(=O)N[C@@H](Cc1ccc(O)cc1)C(=O)N1CCC[C@H]1C(=O)N[C@@H](C)C(=O)N[C@@H](CC(C)C)C(=O)N[C@H](C(=O)N[C@H](C(=O)N[C@H](C(=O)N[C@@H](Cc1ccc(O)cc1)C(=O)N1CCC[C@H]1C(=O)O)[C@@H](C)CC)C(C)C)[C@@H](C)CC` — result for antibacterial activity: “inactive” (Gram-negative bacteria; concentration not given).
For `C=CCc1ccc(OCC=C(C)C)c(OC)c1`, the antifeedant index was 63.7% (Spodoptera frugiperda; larvae; 1000 µg/mL; relative to: untreated control).
With `CS(=O)(=O)c1ccc(/C=N/NC(=O)Cn2ccc(=O)c3ccccc32)cc1` the inhibition was 18.8% (Botrytis cinerea; microbial growth; 50 µg/mL).
`CC[C@H](C)[C@H](NC(=O)CNC(=O)[C@H](CC(C)C)NC(=O)[C@@H](NC(=O)CNC(=O)[C@H](CC(C)C)NC(=O)[C@H](CCC(N)=O)NC(=O)[C@@H](NC(=O)[C@H](CO)NC(=O)[C@H](C)NC(=O)[C@H](CCCCN)NC(=O)[C@H](CCCNC(=N)N)NC(=O)[C@H](CC(C)C)NC(=O)CNC(=O)[C@H](CCC(N)=O)NC(=O)[C@H](CC(C)C)NC(=O)[C@H](CC(C)C)NC(=O)[C@H](CCC(=O)O)NC(=O)CNC(=O)[C@H](CCCNC(=N)N)NC(=O)[C@@H](NC(=O)[C@H](CCCCN)NC(=O)[C@H](Cc1ccccc1)NC(=O)[C@H](CCCCN)NC(=O)[C@H](CCCCN)NC(=O)[C@H](CO)NC(=O)[C@H](CCCCN)NC(=O)[C@H](CC(C)C)NC(=O)[C@H](CC(C)C)NC(=O)[C@H](CCCCN)NC(=O)[C@H](CCCCN)NC(=O)[C@@H](NC(=O)[C@@H](NC(=O)[C@H](CCCCN)NC(=O)CNC(=O)[C@H](CC(C)C)NC(=O)[C@H](CCCCN)NC(=O)[C@H](C)N)[C@@H](C)O)[C@@H](C)CC)[C@@H](C)CC)C(C)C)[C@@H](C)O)C(=O)N[C@@H](CC(C)C)C(=O)O` — result for antibacterial activity: “active” (Gram-negative bacteria; MIC; concentration not given).
`C/C=C/c1ccc(OC(C)=O)c(OC)c1` has an antifeedant index of 65.4% (Spodoptera frugiperda; larvae; 500 µg/mL; relative to: untreated control).
For `CCCCCCCCCCCCCC(=O)N[C@H](CCN)C(=O)N[C@H](C(=O)N[C@@H](CCN)C(=O)N[C@@H](CC(C)C)C(=O)N[C@H]1CCNC(=O)[C@H](CC(=O)O)NC(=O)[C@H](C(C)C)NC(=O)[C@@H](Cc2ccc(O)cc2)NC(=O)[C@H](CCN)NC(=O)[C@H](CC(C)C)NC(=O)[C@@H](Cc2ccccc2)NC1=O)[C@@H](C)O`, “MIC fold change with serum” read 4 fold (ESKAPE pathogens; concentration not given; relative to: MIC with serum over without).

Some of these lines once more:
For `C=CCc1ccc(OCC=C(C)C)c(OC)c1`, the antifeedant index was 63.7% (Spodoptera frugiperda; larvae; 1000 µg/mL; relative to: untreated control).
